Experimental data from different studies.
Each line is one published result; not all experiments were run side by side. Numbers after ± are the reported error.
rep R3428I 3C-like proteinase: Replicase polyprotein 1ab, 3C-like proteinase (rep, Severe acute respiratory syndrome-related coronavirus, UniProt P0C6X7, R3428I)
Chrna3/Chrnb2/Chrna6 with beta3 subunit: Chrna3/Chrnb2/Chrna6, with beta3 subunit (Rattus norvegicus, UniProt P04757+P12390+P43143)
Ricin A chain: Ricin, A chain (Ricinus communis, UniProt P02879)
Neuronal acetylcholine receptor; alpha3/beta2: Neuronal acetylcholine receptor; alpha3/beta2 (Rattus norvegicus, UniProt P04757+P12390)
rep main protease: Replicase polyprotein 1ab, main protease (rep, Severe acute respiratory syndrome coronavirus 2, UniProt P0DTD1)
Replicase polyprotein 1a R3428I 3C-like proteinase: Replicase polyprotein 1a, 3C-like proteinase (Severe acute respiratory syndrome-related coronavirus, UniProt P0C6U8, R3428I)
Botulinum neurotoxin type A light chain: Botulinum neurotoxin type A, light chain (Clostridium botulinum, UniProt P0DPI0)

The chains behind the UniProt entries cited, without tags or fusion partners. Residues count along the entry.
UniProt P04757, 26-499 limits assumed: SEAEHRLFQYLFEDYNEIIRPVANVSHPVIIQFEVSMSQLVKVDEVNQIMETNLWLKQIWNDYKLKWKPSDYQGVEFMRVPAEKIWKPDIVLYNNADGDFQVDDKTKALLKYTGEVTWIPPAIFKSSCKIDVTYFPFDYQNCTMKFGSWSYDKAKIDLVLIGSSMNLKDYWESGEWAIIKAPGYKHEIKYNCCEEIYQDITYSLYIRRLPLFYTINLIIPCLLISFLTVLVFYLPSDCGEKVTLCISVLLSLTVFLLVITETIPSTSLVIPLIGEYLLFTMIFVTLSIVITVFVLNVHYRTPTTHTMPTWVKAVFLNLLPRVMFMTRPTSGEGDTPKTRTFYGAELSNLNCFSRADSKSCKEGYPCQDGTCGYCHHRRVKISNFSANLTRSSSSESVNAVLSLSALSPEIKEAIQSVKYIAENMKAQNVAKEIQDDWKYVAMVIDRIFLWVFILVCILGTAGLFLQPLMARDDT
UniProt P04757, whole entry, looked up: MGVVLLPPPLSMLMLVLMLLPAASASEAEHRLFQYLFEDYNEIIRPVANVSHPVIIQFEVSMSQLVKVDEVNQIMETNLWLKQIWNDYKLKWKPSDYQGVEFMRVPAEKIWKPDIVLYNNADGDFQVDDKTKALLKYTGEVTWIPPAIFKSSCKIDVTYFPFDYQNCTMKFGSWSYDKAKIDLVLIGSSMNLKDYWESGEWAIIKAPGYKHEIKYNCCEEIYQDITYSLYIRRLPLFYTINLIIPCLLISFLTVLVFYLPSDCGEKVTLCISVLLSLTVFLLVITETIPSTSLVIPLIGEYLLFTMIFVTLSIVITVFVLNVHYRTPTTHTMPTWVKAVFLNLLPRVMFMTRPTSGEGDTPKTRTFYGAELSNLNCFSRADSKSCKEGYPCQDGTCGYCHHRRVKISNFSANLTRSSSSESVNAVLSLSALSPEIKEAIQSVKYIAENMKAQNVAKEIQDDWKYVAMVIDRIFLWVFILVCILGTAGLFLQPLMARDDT
UniProt P12390, 25-500 limits assumed: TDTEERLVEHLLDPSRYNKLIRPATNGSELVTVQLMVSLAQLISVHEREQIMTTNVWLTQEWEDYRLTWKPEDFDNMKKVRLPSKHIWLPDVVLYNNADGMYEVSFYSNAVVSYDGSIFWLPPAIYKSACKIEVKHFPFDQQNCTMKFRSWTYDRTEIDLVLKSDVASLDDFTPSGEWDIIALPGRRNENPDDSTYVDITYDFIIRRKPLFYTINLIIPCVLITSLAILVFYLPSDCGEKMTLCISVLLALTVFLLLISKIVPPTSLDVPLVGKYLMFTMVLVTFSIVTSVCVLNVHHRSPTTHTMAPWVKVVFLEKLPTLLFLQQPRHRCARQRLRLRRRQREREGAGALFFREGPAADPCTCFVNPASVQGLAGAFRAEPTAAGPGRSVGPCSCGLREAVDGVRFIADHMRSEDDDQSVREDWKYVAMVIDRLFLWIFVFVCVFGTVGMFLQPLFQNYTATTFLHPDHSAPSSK
UniProt P12390, whole entry, looked up: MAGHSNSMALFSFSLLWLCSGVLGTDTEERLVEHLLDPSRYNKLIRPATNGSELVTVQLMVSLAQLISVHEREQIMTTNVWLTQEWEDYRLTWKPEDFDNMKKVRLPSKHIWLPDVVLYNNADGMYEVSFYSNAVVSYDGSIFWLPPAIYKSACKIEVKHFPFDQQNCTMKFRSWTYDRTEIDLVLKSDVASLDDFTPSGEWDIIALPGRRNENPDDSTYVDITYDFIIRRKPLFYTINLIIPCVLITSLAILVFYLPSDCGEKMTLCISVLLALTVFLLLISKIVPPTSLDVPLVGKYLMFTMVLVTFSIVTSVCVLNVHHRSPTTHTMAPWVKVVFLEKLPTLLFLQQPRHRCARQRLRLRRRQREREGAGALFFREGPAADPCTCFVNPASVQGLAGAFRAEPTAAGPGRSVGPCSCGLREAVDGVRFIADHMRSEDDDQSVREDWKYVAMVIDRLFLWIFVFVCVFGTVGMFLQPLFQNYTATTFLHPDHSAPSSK
UniProt P43143, whole entry M241L/F253L/V303I/V320I/I327V/A333T/K339T, looked up: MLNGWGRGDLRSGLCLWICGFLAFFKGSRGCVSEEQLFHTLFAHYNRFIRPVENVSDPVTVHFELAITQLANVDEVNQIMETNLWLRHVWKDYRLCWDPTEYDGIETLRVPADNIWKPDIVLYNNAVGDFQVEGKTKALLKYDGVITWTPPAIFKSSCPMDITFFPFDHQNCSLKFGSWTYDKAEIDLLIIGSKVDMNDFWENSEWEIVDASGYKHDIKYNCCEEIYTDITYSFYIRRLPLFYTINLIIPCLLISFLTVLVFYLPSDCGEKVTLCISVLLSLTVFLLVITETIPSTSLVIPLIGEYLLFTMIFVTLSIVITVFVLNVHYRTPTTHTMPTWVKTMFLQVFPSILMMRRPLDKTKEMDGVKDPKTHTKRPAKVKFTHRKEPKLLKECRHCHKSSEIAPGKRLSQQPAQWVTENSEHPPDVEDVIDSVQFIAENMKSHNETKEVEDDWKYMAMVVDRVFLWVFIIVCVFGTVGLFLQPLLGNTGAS
UniProt P35372, whole entry: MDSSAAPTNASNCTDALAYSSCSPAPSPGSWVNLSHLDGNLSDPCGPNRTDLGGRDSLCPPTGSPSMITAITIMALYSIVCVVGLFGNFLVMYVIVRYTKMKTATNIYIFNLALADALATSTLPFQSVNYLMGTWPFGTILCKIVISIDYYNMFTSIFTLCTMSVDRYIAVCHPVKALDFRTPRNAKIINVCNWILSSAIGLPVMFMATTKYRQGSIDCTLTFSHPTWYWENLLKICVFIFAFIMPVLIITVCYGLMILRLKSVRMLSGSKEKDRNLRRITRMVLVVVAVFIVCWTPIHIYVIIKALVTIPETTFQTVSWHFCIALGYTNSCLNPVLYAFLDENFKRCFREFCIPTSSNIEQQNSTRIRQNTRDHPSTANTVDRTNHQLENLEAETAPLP
UniProt P15390, whole entry: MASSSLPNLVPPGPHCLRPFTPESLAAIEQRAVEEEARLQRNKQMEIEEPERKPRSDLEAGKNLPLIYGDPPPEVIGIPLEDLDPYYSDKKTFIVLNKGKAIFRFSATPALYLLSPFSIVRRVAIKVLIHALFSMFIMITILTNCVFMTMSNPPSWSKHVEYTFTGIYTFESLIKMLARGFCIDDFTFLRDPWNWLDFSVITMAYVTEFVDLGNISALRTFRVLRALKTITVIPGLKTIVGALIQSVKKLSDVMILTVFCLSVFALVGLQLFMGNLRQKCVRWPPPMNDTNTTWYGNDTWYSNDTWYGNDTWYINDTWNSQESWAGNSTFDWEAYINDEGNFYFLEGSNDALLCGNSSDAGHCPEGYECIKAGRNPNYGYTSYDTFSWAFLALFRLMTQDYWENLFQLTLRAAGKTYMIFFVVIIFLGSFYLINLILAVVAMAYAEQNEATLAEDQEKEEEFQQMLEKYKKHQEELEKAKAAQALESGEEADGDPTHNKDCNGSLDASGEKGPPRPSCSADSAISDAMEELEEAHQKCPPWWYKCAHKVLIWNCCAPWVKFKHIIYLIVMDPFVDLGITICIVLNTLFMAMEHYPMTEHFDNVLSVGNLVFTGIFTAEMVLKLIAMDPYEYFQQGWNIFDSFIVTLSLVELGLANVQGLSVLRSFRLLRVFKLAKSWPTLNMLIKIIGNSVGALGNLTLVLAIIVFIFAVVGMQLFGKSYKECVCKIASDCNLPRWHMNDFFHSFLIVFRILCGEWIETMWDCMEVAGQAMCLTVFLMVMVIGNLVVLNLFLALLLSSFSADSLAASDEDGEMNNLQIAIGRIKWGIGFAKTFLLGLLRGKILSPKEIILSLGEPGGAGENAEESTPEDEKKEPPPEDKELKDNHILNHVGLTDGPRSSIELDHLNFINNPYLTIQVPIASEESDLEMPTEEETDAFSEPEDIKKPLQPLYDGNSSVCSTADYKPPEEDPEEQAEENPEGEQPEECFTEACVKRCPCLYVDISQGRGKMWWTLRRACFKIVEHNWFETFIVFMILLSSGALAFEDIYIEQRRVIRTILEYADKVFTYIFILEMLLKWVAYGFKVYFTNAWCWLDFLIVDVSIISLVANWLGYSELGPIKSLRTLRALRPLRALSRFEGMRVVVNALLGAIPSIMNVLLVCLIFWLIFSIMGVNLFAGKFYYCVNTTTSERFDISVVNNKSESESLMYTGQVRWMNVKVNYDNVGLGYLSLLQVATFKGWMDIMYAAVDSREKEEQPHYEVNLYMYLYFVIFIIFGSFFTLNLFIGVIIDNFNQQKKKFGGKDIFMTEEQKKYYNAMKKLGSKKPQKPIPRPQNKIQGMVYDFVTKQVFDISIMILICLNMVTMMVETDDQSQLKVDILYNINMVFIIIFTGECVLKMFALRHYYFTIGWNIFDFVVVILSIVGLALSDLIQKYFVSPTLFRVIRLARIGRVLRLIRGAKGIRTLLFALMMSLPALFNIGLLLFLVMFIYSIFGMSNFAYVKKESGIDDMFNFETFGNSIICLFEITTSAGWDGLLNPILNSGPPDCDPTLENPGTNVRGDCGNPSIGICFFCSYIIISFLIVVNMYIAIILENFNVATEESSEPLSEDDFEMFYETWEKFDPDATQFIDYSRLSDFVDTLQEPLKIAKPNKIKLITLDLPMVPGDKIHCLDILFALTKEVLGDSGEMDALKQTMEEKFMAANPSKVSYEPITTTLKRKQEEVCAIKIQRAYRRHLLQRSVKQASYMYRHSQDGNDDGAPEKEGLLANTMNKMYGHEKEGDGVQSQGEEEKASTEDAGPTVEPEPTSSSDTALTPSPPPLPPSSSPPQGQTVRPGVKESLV
UniProt P36544, 23-502 limits assumed: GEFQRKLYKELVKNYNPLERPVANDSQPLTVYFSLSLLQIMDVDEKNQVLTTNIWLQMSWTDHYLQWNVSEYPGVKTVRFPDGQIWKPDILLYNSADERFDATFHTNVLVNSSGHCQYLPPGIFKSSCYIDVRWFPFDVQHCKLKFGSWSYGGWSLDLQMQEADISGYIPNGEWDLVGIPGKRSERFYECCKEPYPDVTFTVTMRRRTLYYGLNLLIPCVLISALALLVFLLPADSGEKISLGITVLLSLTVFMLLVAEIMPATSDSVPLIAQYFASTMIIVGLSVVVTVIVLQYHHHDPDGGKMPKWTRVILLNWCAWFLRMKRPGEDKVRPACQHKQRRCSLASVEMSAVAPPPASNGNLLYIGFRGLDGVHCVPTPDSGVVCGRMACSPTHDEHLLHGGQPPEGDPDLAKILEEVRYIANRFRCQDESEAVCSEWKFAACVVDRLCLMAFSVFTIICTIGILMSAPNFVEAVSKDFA
UniProt P06401, whole entry: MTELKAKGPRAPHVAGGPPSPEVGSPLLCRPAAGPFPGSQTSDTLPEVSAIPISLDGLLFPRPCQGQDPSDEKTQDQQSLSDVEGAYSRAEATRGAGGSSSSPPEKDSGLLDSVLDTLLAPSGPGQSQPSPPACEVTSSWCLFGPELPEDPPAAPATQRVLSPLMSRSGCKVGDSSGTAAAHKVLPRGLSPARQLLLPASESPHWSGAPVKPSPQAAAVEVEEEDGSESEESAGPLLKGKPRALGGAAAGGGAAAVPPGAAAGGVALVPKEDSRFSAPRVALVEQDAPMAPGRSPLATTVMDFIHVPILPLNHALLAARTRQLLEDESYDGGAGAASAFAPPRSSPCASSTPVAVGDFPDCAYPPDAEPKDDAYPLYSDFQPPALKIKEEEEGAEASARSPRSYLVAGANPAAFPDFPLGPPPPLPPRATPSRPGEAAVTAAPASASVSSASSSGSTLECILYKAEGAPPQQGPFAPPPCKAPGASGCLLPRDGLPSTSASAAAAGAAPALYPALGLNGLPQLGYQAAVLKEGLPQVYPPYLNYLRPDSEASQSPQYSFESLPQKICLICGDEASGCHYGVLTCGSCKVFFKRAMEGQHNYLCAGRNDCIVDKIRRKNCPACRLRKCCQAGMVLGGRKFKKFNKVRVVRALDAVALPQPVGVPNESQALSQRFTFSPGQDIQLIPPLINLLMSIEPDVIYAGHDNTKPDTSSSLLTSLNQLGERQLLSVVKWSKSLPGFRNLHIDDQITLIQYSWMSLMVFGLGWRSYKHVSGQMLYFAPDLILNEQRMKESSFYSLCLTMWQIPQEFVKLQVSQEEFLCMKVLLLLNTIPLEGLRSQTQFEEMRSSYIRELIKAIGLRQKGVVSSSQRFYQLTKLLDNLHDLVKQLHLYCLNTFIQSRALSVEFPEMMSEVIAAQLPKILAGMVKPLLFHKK

CC(=O)OC[C@@H](NC(=O)/C=C/c1ccccc1)C(=O)NC1CCCCC1 has an IC50 of 550 µM (rep R3428I 3C-like proteinase; enzyme activity, inhibitor, HPLC substrate depletion; pH 4.0).
The IC50 of CC[C@H](C)[C@@H]1NC(=O)[C@H](CCC(=O)O)NC(=O)[C@@H]2CCCN2C(=O)[C@H](Cc2c[nH]cn2)NC(=O)[C@H](CCCCC(=O)O)NC(=O)[C@H](CC(C)C)NC(=O)[C@H](Cc2c[nH]cn2)NC(=O)[C@@H]2CSSC[C@H](NC(=O)CN)C(=O)N[C@@H](CSSC[C@@H](C(N)=O)NC1=O)C(=O)N[C@@H](CO)C(=O)N[C@@H](Cc1c[nH]cn1)C(=O)N1CCC[C@H]1C(=O)N[C@@H](C)C(=O)N2 is reported as 0.0582 µM (Chrna3/Chrnb2/Chrna6 with beta3 subunit; ion current, antagonist, two-electrode voltage clamp; Xenopus laevis oocytes; together with: 100 µM acetylcholine).
For NNC(=O)c1cnc2c(=O)[nH]c(N)nc2n1, the IC50 was < 1000 µM (Ricin A chain; recovery of translation, inhibitor, in vitro luciferase translation; rabbit reticulocyte lysate).
CC(C)C[C@@H]1NC(=O)[C@H](CCC(=O)O)NC(=O)[C@@H]2CCCN2C(=O)[C@H](Cc2c[nH]cn2)NC(=O)[C@H](CC(N)=O)NC(=O)[C@H](C(C)C)NC(=O)[C@H](CC(N)=O)NC(=O)[C@@H]2CSSC[C@H](NC(=O)CN)C(=O)N[C@@H](CSSC[C@@H](C(N)=O)NC1=O)C(=O)N[C@@H](CO)C(=O)N[C@@H](Cc1c[nH]cn1)C(=O)N1CCC[C@H]1C(=O)N[C@@H](C)C(=O)N2 has an IC50 of 0.00932 µM (Neuronal acetylcholine receptor; alpha3/beta2; ion current, antagonist, two-electrode voltage clamp; Xenopus laevis oocytes; together with: 100 µM acetylcholine).
Cc1cc(N)c2cc(NC(=O)c3cccc(-c4ccc(N(C)C)cc4)c3)ccc2n1 gave an IC50 of 17 µM (Lethal factor (Bacillus anthracis, UniProt P15917); enzyme activity, inhibitor, FRET; 30 min, 37 °C, together with: 20 µM peptide substrate).
For CSCC[C@H](NC(=O)[C@H](CC(=O)O)NC(=O)[C@@H](N)CC(=O)O)C(=O)NCC(=O)N[C@@H](Cc1ccccc1)C(=O)NCC(=O)N[C@@H](CC(C)C)C(=O)N[C@@H](Cc1ccccc1)C(=O)N[C@@H](CC(=O)O)C(=O)O, the IC50 was 26 ± 4 µM (Shiga-like toxin 2 subunit A, A1 fragment (UniProt P09385); ribosome depurination; yeast ribosomes; pH 7.4).
c1ccc2c(c1)OCC(C1=NCCN1)O2 (stereo not drawn) has an IC50 of 17.4 µM (rep main protease; luciferase reporter, inhibitor; SARS-CoV-2; 48 h).
CCCCCc1cc(O)c([C@@H]2C=C(C)CC[C@H]2C(C)C)c(O)c1 has an IC50 of 0.021 µM (Mu-type opioid receptor (OPRM1, Homo sapiens, UniProt P35372); cAMP level, antagonist; HEK293 expressing human µ-opioid receptor; together with: fentanyl 500 pM (EC95)).
CC(C)COC(=O)N[C@H](C(=O)N[C@@H](CC(C)C)C(=O)N[C@@H](C[C@@H]1CCNC1=O)C(=O)c1nccs1)C(C)C gave an IC50 of 250 µM (rep R3428I 3C-like proteinase; enzyme activity, inhibitor, HPLC; 60 min, 37 °C, together with: substrate 111 µM).
CC(C)C[C@@H]1NC(=O)[C@H](CC(N)=O)NC(=O)[C@H](CCCCN)NC(=O)[C@@H]2CSSC[C@H](NC(=O)[C@@H](N)CCCNC(=N)N)C(=O)N[C@H]3CSSC[C@H](NC(=O)[C@H](CCCCN)NC1=O)C(=O)N[C@H](C(=O)N[C@@H](C)C(N)=O)CSSC[C@H](NC(=O)[C@H](CO)NC(=O)CNC(=O)[C@H](CCCCN)NC(=O)[C@H](CCCCN)NC(=O)CNC(=O)[C@H]([C@@H](C)O)NC3=O)C(=O)N[C@@H](CO)C(=O)NCC(=O)N[C@@H](CCCNC(=N)N)C(=O)N[C@@H](C)C(=O)N2 gave an IC50 of 0.007 µM (Sodium channel protein type 4 subunit alpha (Scn4a, Rattus norvegicus, UniProt P15390); sodium current, blocker, two-electrode voltage clamp; Xenopus oocytes expressing Scn4a; room temperature, holding -80 mV, steps to 0 mV).
Cc1cccc([N+](=O)[O-])c1C(=O)OC[C@@H](NC(=O)/C=C/c1ccccc1)C(=O)NC1CCCCC1 has an IC50 of 100 µM (rep R3428I 3C-like proteinase; enzyme activity, inhibitor, HPLC substrate depletion; pH 4.0).
The IC50 of O=C(O)c1ccc(Cc2cccs2)cc1 is reported as 32 µM (Ricin A chain; ribosome depurination, inhibitor; yeast ribosomes; pH 7.4).
For O=C(/C=C/c1ccccc1)N[C@@H](COC(=O)c1cc([N+](=O)[O-])cc([N+](=O)[O-])c1)C(=O)NC1CCCCC1, the IC50 was 250 µM (rep R3428I 3C-like proteinase; enzyme activity, inhibitor, HPLC substrate depletion; pH 4.0).
CC(C)C[C@H](NC(=O)[C@@H](NC(=O)COc1ccccc1)C(C)C)C(=O)N[C@@H](Cc1c[nH]cn1)C(=O)c1nccs1 has an IC50 of 210 µM (rep R3428I 3C-like proteinase; enzyme activity, inhibitor, HPLC; 60 min, 37 °C, together with: substrate 111 µM).
For C[C@@H]1NC(=O)[C@H](CCCNC(=N)N)NC(=O)[C@H](CCCNC(=N)N)NC(=O)[C@H](CCCNC(=N)N)NC(=O)[C@H](CO)NC(=O)[C@@H]2CSSC[C@H](NC(=O)CN)C(=O)N[C@@H](CSSC[C@@H](C(N)=O)NC(=O)[C@H](CO)NC(=O)[C@H](CCCNC(=N)N)NC1=O)C(=O)N[C@@H](CO)C(=O)N[C@@H](Cc1c[nH]cn1)C(=O)N1CCC[C@H]1C(=O)N[C@@H](C)C(=O)N2, the IC50 was 0.177 µM (Neuronal acetylcholine receptor subunit alpha-7 (CHRNA7, Homo sapiens, UniProt P36544); ion current, antagonist, two-electrode voltage clamp; Xenopus oocytes; holding -70 mV, together with: 100 µM acetylcholine).
The IC50 of COc1cccc(/C=C/C(=O)N[C@@H](COC(=O)c2ccccc2)C(=O)NC2CCCCC2)c1 is reported as 98 µM (rep R3428I 3C-like proteinase; enzyme activity, inhibitor, HPLC substrate depletion; pH 4.0).
The EC50 of NC12CC3CC(CC(C3)C1)C2 is reported as 58.4 ± 2.5 µM (Influenza A virus; viral replication, plaque size reduction; MDCK, A/Swine/Indiana/29-0408/2010 (H1N2)).
CC(C)C[C@@H]1NC(=O)[C@H](CCC(=O)O)NC(=O)[C@@H]2CCCN2C(=O)[C@H](Cc2c[nH]cn2)NC(=O)[C@H](CCC(=O)O)NC(=O)[C@H](C(C)C)NC(=O)[C@H](CO)NC(=O)[C@@H]2CSSC[C@H](NC(=O)CN)C(=O)N[C@@H](CSSC[C@@H](C(N)=O)NC1=O)C(=O)N[C@@H](CO)C(=O)N[C@@H](Cc1c[nH]cn1)C(=O)N1CCC[C@H]1C(=O)N[C@@H](C)C(=O)N2 gave an IC50 of 0.0311 µM (Neuronal acetylcholine receptor; alpha3/beta2; ion current, antagonist, two-electrode voltage clamp; Xenopus laevis oocytes; together with: 100 µM acetylcholine).
For O=C(/C=C/c1ccccc1)N[C@@H](c1ccccc1)[C@@H](OC(=O)/C=C/c1cccc(O)c1)C(=O)NC1CCCCC1, the IC50 was > 500 µM (Replicase polyprotein 1a R3428I 3C-like proteinase; enzyme activity, inhibitor; pH 4.0).
For Nc1nc2nc(C(=O)NCCNc3ccccc3)cnc2c(=O)[nH]1, the IC50 was 210 µM (Ricin A chain; recovery of translation, inhibitor, in vitro luciferase translation; rabbit reticulocyte lysate).
With O=C1NN(c2ccccc2)C(=O)/C1=C\c1ccc(-c2cc([N+](=O)[O-])ccc2O)o1 the IC50 was 43 ± 7 µM (Botulinum neurotoxin type A light chain; inhibitor, FRET, YFP-SNAP25-CFP substrate; no reducing agent).
For CC(C)C[C@H](NC(=O)[C@@H](NC(=O)OCC(C)(C)C)C(C)C)C(=O)N[C@@H](C[C@@H]1CCNC1=O)C(=O)c1nccs1, the IC50 was 280 µM (rep R3428I 3C-like proteinase; enzyme activity, inhibitor, HPLC; 60 min, 37 °C, together with: substrate 111 µM).
O=C(NCc1cccs1)[C@@H]1CN(C(=O)c2cccnc2)CCN1c1ccc(Cl)c(Cl)c1 gave an IC50 of 0.05 µM (rep main protease; enzyme activity, inhibitor).
CC[C@H](C)[C@@H]1NC(=O)[C@H](CO)NC(=O)[C@@H]2CSSC[C@H](NC(=O)CN)C(=O)N[C@@H](CSSC[C@@H](C(N)=O)NC(=O)[C@H](CC(C)C)NC(=O)[C@H](CCC(=O)O)NC(=O)[C@@H]3CCCN3C(=O)[C@H](Cc3c[nH]cn3)NC(=O)[C@H](CC(N)=O)NC1=O)C(=O)N[C@@H](CO)C(=O)N[C@@H](Cc1c[nH]cn1)C(=O)N1CCC[C@H]1C(=O)N[C@@H](C)C(=O)N2 gave an IC50 of 0.0134 µM (Chrna3/Chrnb2/Chrna6 with beta3 subunit; ion current, antagonist, two-electrode voltage clamp; Xenopus laevis oocytes; together with: 100 µM acetylcholine).
CC(C)C[C@H](NC(=O)[C@@H](NC(=O)CNc1ccccc1)C(C)C)C(=O)N[C@@H](C[C@@H]1CCNC1=O)C(=O)c1nc2ccccc2s1 gave an IC50 of 1.5 µM (rep R3428I 3C-like proteinase; enzyme activity, inhibitor, HPLC; 60 min, 37 °C, together with: substrate 111 µM).
The IC50 of O=C(/C=C/c1ccc(OC(=O)c2ccccc2)cc1)N[C@@H](COC(=O)c1ccccc1)C(=O)NC1CCCCC1 is reported as 95 µM (rep R3428I 3C-like proteinase; enzyme activity, inhibitor, HPLC substrate depletion; pH 4.0).
For O=C(/C=C/c1ccccc1)N[C@@H](c1ccccc1)[C@@H](OC(=O)c1ccccc1)C(=O)NC1CCCCC1, the IC50 was 43 µM (Replicase polyprotein 1a R3428I 3C-like proteinase; enzyme activity, inhibitor; pH 4.0).
The IC50 of O=C(/C=C/c1ccccc1)N[C@H](COC(=O)c1ccccc1)C(=O)NCc1ccccc1 is reported as 225 µM (rep R3428I 3C-like proteinase; enzyme activity, inhibitor, HPLC substrate depletion; pH 4.0).
C=C(C)C(=O)Nc1cccc(C2=NOC3(C2)C[C@@H](C(N)=O)N(C(=O)C2(C)CC2)C3)c1 (stereo partly drawn) has an IC50 of 0.4 ± 0.2 µM (Botulinum neurotoxin type A light chain; inhibitor, FRET, YFP-SNAP25-CFP substrate; no reducing agent).
For O=C(/C=C/Cc1ccccc1)N[C@@H](COC(=O)c1ccccc1)C(=O)NC1CCCCC1, the IC50 was 500 µM (rep R3428I 3C-like proteinase; enzyme activity, inhibitor, HPLC substrate depletion; pH 4.0).
C[As](O)O gave an IC50 of ~0.02 µM (Progesterone receptor (PGR, Homo sapiens, UniProt P06401); DNA binding, fluorescence polarization; together with: FITC-labelled GRE DNA).
The IC50 of O=C(/C=C/c1ccccc1)N[C@@H](COC(=O)[C@@H]1CCC(=O)N1)C(=O)NC1CCCCC1 is reported as > 1600 µM (rep R3428I 3C-like proteinase; enzyme activity, inhibitor, HPLC substrate depletion; pH 4.0).
For CC1=Nc2ccccc2/C1=C/c1sc(=S)n(-c2cccc(C(=O)O)c2)c1O, the IC50 was 70 ± 30 µM (Botulinum neurotoxin type A light chain; inhibitor, FRET, YFP-SNAP25-CFP substrate; no reducing agent).

For quick reference, copied from above:
CC(C)C[C@@H]1NC(=O)[C@H](CC(N)=O)NC(=O)[C@H](CCCCN)NC(=O)[C@@H]2CSSC[C@H](NC(=O)[C@@H](N)CCCNC(=N)N)C(=O)N[C@H]3CSSC[C@H](NC(=O)[C@H](CCCCN)NC1=O)C(=O)N[C@H](C(=O)N[C@@H](C)C(N)=O)CSSC[C@H](NC(=O)[C@H](CO)NC(=O)CNC(=O)[C@H](CCCCN)NC(=O)[C@H](CCCCN)NC(=O)CNC(=O)[C@H]([C@@H](C)O)NC3=O)C(=O)N[C@@H](CO)C(=O)NCC(=O)N[C@@H](CCCNC(=N)N)C(=O)N[C@@H](C)C(=O)N2 gave an IC50 of 0.007 µM (Sodium channel protein type 4 subunit alpha (Scn4a, Rattus norvegicus, UniProt P15390); sodium current, blocker, two-electrode voltage clamp; Xenopus oocytes expressing Scn4a; room temperature, holding -80 mV, steps to 0 mV).
Cc1cccc([N+](=O)[O-])c1C(=O)OC[C@@H](NC(=O)/C=C/c1ccccc1)C(=O)NC1CCCCC1 has an IC50 of 100 µM (rep R3428I 3C-like proteinase; enzyme activity, inhibitor, HPLC substrate depletion; pH 4.0).
The IC50 of O=C(O)c1ccc(Cc2cccs2)cc1 is reported as 32 µM (Ricin A chain; ribosome depurination, inhibitor; yeast ribosomes; pH 7.4).
